Assay results gathered from unrelated publications.
Each numbered part is a random draw from the data of one study; scales do not carry over between parts. Substitutions count along the parent as printed.

Set 1 — technique: universal PBM; form: double-stranded DNA, one strand shown; sample: in vitro; tested at: not given; direction: higher = stronger binding; endpoint: E-score
Target: Sal-like protein 4, full length isoform B (SALL4, Homo sapiens, UniProt Q9UJQ4-2, residues 1-616)
Setting: 8-mer, flanks averaged, mean of replicates
Target sequence (chain): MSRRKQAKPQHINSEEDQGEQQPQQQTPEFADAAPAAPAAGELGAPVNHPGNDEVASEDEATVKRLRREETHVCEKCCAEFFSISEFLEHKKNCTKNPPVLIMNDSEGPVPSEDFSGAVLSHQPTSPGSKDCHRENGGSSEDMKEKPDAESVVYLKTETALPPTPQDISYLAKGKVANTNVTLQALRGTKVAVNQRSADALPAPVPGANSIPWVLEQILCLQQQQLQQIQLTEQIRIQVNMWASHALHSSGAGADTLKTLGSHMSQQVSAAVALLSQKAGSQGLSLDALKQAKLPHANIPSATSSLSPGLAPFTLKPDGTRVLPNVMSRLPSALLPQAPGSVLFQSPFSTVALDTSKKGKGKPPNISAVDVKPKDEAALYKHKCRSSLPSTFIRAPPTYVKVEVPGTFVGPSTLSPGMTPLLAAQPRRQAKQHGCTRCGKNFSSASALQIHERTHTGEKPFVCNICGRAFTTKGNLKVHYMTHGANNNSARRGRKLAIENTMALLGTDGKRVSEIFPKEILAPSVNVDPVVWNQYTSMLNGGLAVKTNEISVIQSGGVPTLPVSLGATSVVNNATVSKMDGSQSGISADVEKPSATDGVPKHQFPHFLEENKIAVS
ACCGGATA: -0.0909
CCCAAGAC: -0.17
AGTTCCAC: 0.053
GCCTTCTA: -0.0563
GACCATCA: -0.0284
ACCGTACC: -0.252
ATCACTTC: 0.00938
CCTTCCCC: -0.251
CACTGGCC: -0.181
CAGTCTAC: -0.0208
AACCGAAG: 0.0647
AAGGCTTA: 0.0799
AGATTACT: 0.203
CTTAACTC: 0.0907
CGATCAGA: -0.0241
GGTTGTGA: -0.0233
GAATCAGC: -0.243
GCAAGCCA: -0.24
CTGTCGGC: -0.285
GTGTGCTA: -0.0247
CCCTCATC: -0.0571
GAGACGAC: -0.251

Set 2 — technique: RNA Bind-n-Seq; form: RNA; sample: in vitro; tested at: 1 µM; setting: whole 134-nt RNA, ends assumed; added: 150 mM KCl; reference: input library; direction: higher = stronger binding; endpoint: log2 enrichment
Target: Ras GTPase-activating protein-binding protein 1, RRM domain (G3BP1, Homo sapiens, UniProt Q13283)
Chain of UniProt Q13283 (whole entry, looked up): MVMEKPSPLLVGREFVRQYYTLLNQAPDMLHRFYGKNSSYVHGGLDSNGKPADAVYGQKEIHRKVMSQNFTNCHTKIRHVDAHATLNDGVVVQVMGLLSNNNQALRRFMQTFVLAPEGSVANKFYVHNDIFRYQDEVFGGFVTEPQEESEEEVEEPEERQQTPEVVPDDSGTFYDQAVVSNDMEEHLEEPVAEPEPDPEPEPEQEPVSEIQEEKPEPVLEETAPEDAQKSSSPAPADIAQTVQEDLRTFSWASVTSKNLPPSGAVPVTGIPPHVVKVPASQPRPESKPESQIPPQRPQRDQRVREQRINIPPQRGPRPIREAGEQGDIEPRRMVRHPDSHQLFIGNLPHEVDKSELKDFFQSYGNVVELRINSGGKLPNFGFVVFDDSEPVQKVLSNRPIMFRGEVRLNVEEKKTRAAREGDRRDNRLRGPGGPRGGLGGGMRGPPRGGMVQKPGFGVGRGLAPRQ
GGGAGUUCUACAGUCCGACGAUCUUACACCAAUGAGAAGCUGCAGCAGCUCUUCAACCACACCAUGUUCAUCCUGGAGCAGGAGGAGUACCAGCGCGAGGGCAUCGAGUGGAAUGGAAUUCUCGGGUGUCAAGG: -0.0044
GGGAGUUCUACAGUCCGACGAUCAGUCCUGUGCUACACAUCGUAUGUACCGAAUCGGAAAAAGGUUUUUGGAAAAAAAGGAAAGUAUUAUGUUACGCCGUUCGGAUCUGCACUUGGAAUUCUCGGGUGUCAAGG: -0.111
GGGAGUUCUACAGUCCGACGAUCACCAUGCAGGUGGGCAUCUUUGGGAAGUGGGGCAAGGGGGGGAUAGGGAAGGGGGUAACACUUUGGGAACAGGUGGUCCCAGGUCGUUUCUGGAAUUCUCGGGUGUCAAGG: 1.06
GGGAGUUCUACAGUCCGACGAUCGUCCUGUGCUACACAUCGUAUGUACCGAAUCGGGUUUGGGUUUUUGGGAAAAAAAGGGAAAGUAUUAUGUUACGCCGUUCGGAUCUGCACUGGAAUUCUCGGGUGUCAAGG: 0.259
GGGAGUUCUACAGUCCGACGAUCGUCCUGUGCUACACAUCGUAUGUACCGAAUCGGGGUUUUUGGGUUUUUGGGUUUUUGGAAAGUAUUAUGUUACGCCGUUCGGAUCUGCACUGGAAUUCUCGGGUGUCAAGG: -0.167
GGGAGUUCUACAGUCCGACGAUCCAAGUCCUGUGCUACACAUCGUAUGUACCGAAUCGGGGAGGGGAAAGGGGUGGGGAAAGUAUUAUGUUACGCCGUUCGGAUCUGCACUUCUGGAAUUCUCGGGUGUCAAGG: 0.947
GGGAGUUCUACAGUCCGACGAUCUAACUUUAGAGGAGGAUCUGAUGGAUAUGGCAGUGGACGUGGAUUUGGGGAUGGCUAUAAUGGGUCUGGAGGAGGACCUGGAGGUGGCAAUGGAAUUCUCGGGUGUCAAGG: -0.496
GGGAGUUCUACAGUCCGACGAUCAGGAAAAUGUUUAUAGGAGGCCUUAGCUGGGACACUACAAAGAAAGAUCUGAAGGACUACUUUUCCAAAUUUGGUGAAGUUGUAGACUGCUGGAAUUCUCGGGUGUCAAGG: -0.0723
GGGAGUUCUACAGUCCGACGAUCCACAGACAACACGCACCCACACAGACACAGAGGGAAGGGGUUGGGAUGGGGACAGGGUGCACAGCAGGGCGGGGUAGGACCCCAGCCUCUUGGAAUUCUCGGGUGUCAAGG: -0.323
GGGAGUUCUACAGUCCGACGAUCUGGGAGGUGGAUUUUGUUUAUUUUUUUAGCUCAUUUCCAGGGGUGGGAAUUUUUUUUUAAUAUGUGUCAUGAAUAAAGCUGUUUUUGAAAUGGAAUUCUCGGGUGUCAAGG: 1.33
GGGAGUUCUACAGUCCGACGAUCGCUCGCCCGAGCUCAGAGGUGAUCAAAGACGCCAACUUGUACAUCAGCGGGCUCCCGCGGACCAUGACCCAGAAGGACGUAGAAGACAUGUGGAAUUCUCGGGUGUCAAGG: -0.311
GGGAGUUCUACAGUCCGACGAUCGCAGGAAGUAAAAACAAAUGGAAAUGCUUCGGAUAGUGGCAGGGGUGGGGGUUGCUAAGGAAAGGGUGGGAUGGGAGUGGGUAACGAGUUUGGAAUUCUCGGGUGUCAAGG: 0.811
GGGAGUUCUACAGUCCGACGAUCCACAGCCAACACGCACCCACACAGACACAGAGGGAAGGGGUUGGGAUGGGGACAGGGUGCACAGCAGGGCGGGGUAGGACCCCAGCCCCUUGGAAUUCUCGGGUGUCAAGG: -0.103
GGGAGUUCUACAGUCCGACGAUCGUCCUGUGCUACACAUCGUAUGUACCGAAUCGGGAGGGUUUUUUUGGGAAAAAAAGGGAAAGUAUUAUGUUACGCCGUUCGGAUCUGCACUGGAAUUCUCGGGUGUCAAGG: 0.0343

Set 3 — target: CCNE1, cyclin fold, Cln2 fusion (human); technique: yeast growth competition, sequencing; sample: yeast; setting: strong parent motif; reference: not given; direction: higher = stronger binding; endpoint: normalised enrichment score
Parent: CCP110 docking peptide (human); EKVKRRLDLDIDG
EKVKRRLDLDIAG [D12A]: 1.78
EKVKRRLDLAIDG [D10A]: 1.77
EKVKRRLDLDADG [I11A]: 1.44
EKVKARLDLDIDG [R5A]: 0.124
AKVKRRLDLDIDG [E1A]: 2.23
EKVKRRADLDIDG [L7A]: -0.121
EKVKKRLDLDIDG [R5K]: 0.363

Set 4 — technique: protein-binding microarray; form: double-stranded DNA, one strand shown; sample: in vitro; tested at: 2540 nM top; setting: 60-bp whole probe; added: salmon DNA 0.4 mg/ml; reference: random background probes; direction: higher = stronger binding; endpoint: fitted relative affinity; shared flanks, not repeated: GCCTAGCAC … GTCTTGATTCGCTTGACGCTGCTG
Target: Interferon regulatory factor 3, full length, phosphomimetic (IRF3, Homo sapiens, UniProt Q14653, residues 1-427, S386D/S396D/S398D/S402D/T404D/S405D)
Chain of UniProt Q14653 (whole entry, unmodified, looked up): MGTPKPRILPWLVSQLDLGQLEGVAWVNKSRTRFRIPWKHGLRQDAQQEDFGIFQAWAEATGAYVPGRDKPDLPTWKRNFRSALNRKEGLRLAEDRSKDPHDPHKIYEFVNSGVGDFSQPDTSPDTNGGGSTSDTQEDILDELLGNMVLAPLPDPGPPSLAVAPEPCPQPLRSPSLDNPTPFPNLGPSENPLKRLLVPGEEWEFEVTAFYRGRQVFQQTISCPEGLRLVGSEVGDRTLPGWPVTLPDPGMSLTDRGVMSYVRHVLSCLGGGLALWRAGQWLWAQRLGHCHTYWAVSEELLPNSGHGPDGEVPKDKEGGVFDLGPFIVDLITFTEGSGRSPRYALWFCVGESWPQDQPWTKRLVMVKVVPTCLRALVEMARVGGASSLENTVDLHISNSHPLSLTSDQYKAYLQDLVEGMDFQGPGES
CCCTGAGGAATCCTGCAGCCGTGCTAG: -0.425 z-score
GACGATATCGGGGTTCGAGACGTGCTA: -0.0876 z-score
ATGAAGTTCTTTTTTTCAAGGTGCTAG: 0.974 z-score
TTAGGACTGGACTATCGTTTAGTGCTA: -0.453 z-score
GACGGTTTCGTACTGCTGACGTGCTAG: 3.93 z-score
ATGATGTGTCAAAAATTGCAGTGCTAG: -0.116 z-score
TTTTCATTATTGTCTCCCCCAGTGCTA: 2.64 z-score
AATCATTTTAGTTTTCATTAGTGCTAG: 3.07 z-score
TTAGGTTCCGGTTGCGGTTAGTGCTAG: 3.19 z-score
TTAGGTTTCGGGTTTTGGTTAGTGCTA: 4.92 z-score
GACGGACTGGGTATCGGGAAGTGCTAG: -0.121 z-score
ACTCGTGACCCTCTCAAAGGGTGCTAG: 0.296 z-score
TTAGGACTGCTTATCATTTAGTGCTAG: -0.266 z-score
TTAGACATCAGACTGGATTAGTGCTAG: -0.406 z-score
TCATGTTTGGTCCTGAAACTGTGCTAG: 0.189 z-score
TTAGATTTCTGGTATCGATTAGTGCTA: 0.721 z-score
CTAGTAGCCTAAGGCTACCGGTGCTAG: 0.794 z-score
GGCGGTATCGGTCTCGGGACGTGCTAG: 4.4 z-score
TGTTATTAAAATTTAATGGGGTGCTAG: 0.137 z-score
TCATCTTTCGTTACTTCACTGTGCTAG: 2.05 z-score
GACGGTATCCTTCTACTGACGTGCTAG: 5.31 z-score
TTAGATTTCAGACTAGATTAGTGCTAG: 1.03 z-score
TCAAACTTCTCCACTGAAACTGTGCTA: 0.0336 z-score
TTAGGTCTCCTTCCCCTTTAGTGCTAG: 1.59 z-score
GACGATTTCCGTCTCGAGACGTGCTAG: 3.68 z-score

Set 5 — technique: DHFR PCA, deep sequencing; sample: yeast; added: (+)-ABA 4.8 µM; reference: wild-type fitted maximum; direction: higher = stronger binding; endpoint: relative binding score
Target: ABI1, truncated, D143A, DHFR fusion (Arabidopsis thaliana)
Setting: methotrexate growth selection, single substitutions
Parent: PYL1, truncated, DHFR fusion (Arabidopsis thaliana); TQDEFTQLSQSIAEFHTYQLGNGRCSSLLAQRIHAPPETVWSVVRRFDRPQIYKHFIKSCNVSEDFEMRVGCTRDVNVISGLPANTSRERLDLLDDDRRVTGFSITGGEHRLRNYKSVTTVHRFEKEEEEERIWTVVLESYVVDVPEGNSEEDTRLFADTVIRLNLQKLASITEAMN
I79C: 70.2%
I172H: 23.3%
S171I: 67.1%
I79G: -0.291%
S63C: 72.7%
F47Q: -7.55%
G71T: -1.35%
Q2R: 71.1%
E131W: 39.3%
H55P: 103%
I57M: 0.095%
R45W: -9.38%
H34K: 72%
G108W: -1.58%
D48Q: -10.4%
H34N: 76.9%

Set 6 — technique: protein binding microarray; form: double-stranded DNA, one strand shown; sample: in vitro; tested at: not given; reference: not given; direction: higher = stronger binding; endpoint: E-score
Target: Histone acetyltransferase KAT6A, winged helix 2, GST fusion (KAT6A, Homo sapiens, UniProt Q92794, residues 85-181)
Setting: 8-mer, flanks averaged, mean of 2 arrays, mostly near background
Residues (chain): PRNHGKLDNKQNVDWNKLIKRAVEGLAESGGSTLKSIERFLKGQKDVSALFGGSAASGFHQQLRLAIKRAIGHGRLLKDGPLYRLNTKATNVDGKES
CAATAACC: 0.0546
GTGTTGAA: -0.0622
GACCGCAA: 0.163
AAGGTATT: -0.238
TACTGCGA: -0.0388
ATGCATGG: 0.00587
CATTTGCG: 0.0598
TAGAACAA: -0.134
AAAGCCAT: 0.0369
AGACACTA: 0.098
GCTGCAAA: 0.155
CTCAAGTA: -0.233
ACGGCCCC: -0.101
GCATGTAC: -0.257
GAAGTAGA: 0.015
AACATAAA: -0.0221
AGATGGCA: 0.0508
CTAGGACC: -0.135
GATAGATC: -0.0874
GTCACCTA: -0.139
